Measured values from different studies.
Numbered parts are unrelated; each lists some results of a single study. Positions count from the first letter of the parent shown.

Block 1
Target: Centromere-binding protein 1, full length, N-terminal tag (CBF1, Saccharomyces cerevisiae, UniProt P17106, residues 1-351)
UniProt P17106, sequence (whole entry, looked up): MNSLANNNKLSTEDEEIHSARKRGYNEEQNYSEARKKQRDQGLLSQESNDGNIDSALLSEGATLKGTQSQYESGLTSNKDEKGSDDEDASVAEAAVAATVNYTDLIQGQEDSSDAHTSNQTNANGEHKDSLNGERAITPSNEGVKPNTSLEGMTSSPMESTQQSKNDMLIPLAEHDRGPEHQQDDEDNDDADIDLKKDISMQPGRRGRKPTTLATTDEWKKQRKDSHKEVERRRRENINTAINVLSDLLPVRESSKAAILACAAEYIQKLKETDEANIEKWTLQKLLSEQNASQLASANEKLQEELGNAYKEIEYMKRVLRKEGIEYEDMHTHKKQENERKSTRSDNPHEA
Technique: protein-binding microarray
Form: double-stranded DNA, one strand shown
Sample: in vitro
Concentration: 0.8 µM
Notes: whole 60-bp probe, no competitor
Direction: higher = stronger binding
Endpoint: fluorescence intensity
CTAACCTCACCTTACCACATGTTGGTCCGTTGCTTCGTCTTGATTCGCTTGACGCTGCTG: 554 a.u.
CCTAACTACTATATATTCGTGATATAGCTTCGTACAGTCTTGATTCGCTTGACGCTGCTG: 560 a.u.
CTATGCAATTAAGTGCACGAAAAATTTCTTTTATTCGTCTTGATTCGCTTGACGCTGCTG: 521 a.u.
CCTAACTACTATACACACGTGAGATAGCTTCGTACAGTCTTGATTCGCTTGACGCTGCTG: 2770 a.u.
CTATTAAGTTGAAATCACGCTAACATATGACTATTCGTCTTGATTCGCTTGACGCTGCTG: 768 a.u.
GAATGAAAGTTCTTGAACGTGAAAGAAAGAAAATAGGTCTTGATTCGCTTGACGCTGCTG: 554 a.u.
GAAACTGCAATAATGCACATGTATCTTTTCAGTTAGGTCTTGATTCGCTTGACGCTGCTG: 639 a.u.
GAACAATTATGTGGTCACGATCACTCGTTGCTTTAGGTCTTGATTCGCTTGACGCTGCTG: 1350 a.u.
GAATAGATTTTACGTGATATGTTGGATAAGTAGTAGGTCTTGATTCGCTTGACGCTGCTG: 605 a.u.
CTAAAGTGCCGCTTACTCGTGAGAATATCAACCTTCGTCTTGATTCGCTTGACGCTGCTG: 562 a.u.
CCTAACTACTATACCCACGATGGATAGCTTCGTACAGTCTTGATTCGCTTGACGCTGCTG: 488 a.u.
CTATCTTCTTGAAGCCACACGTGAATACTACCTTTCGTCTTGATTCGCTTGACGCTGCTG: 2380 a.u.
TGTACGAAGCTATGGCACGGCACTATAGTAGTTAGGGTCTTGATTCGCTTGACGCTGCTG: 513 a.u.
CTATCATGAGAAGCGCACATGTCGTGATATCAATTCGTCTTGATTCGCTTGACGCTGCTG: 1560 a.u.
CTAATCCTGAGCCATCACCCACCCCACCCGTTGTTCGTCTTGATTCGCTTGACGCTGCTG: 528 a.u.
TGTACGAAGCTATATCACATGTGTATAGTAGTTAGGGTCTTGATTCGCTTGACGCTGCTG: 1960 a.u.
GAAAAACAGATAGACAGCATGACGGCTGAAGCCTAGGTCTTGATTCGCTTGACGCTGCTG: 485 a.u.
GAAATGTTTTTGAACACCACCATCAGCCATACATAGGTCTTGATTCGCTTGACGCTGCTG: 508 a.u.
GAACATACGGCGGCTCTCCTGATTGCGGTGGGTTAGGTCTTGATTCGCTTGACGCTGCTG: 543 a.u.
CTATTGTTTTTATCAGGTGTTTCCCTATTTATATTCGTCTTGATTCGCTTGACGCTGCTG: 884 a.u.
GAATACCTATTACTGCATGTGGAGAAAAGATTATAGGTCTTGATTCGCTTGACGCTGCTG: 632 a.u.
GAAGAATACAGTGGGCACATGCCACCTGTTATTTAGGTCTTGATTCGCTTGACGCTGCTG: 910 a.u.
CTAATACGACTTGAACATCAGAACGGCGATTTTTTCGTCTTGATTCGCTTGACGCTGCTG: 560 a.u.
CCTAACTACTATAATCACCTTACATAGCTTCGTACAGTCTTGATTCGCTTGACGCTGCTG: 537 a.u.
TGTACGAAGCTATTTCAGGTCACTATAGTAGTTAGGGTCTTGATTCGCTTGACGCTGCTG: 552 a.u.

Block 2
Target: RNA binding protein fox-1 homolog 2, RRM domain, GST-SBP tag (RBFOX2, Homo sapiens, UniProt O43251-10, residues 100-194)
Technique: RNA Bind-n-Seq
Form: RNA
Sample: in vitro
Concentration: 365 nM
Notes: natural RNA segment, single round, ends assumed
Reference: no-protein control
Direction: higher = stronger binding
Endpoint: RBNS enrichment (R)
Residues (chain): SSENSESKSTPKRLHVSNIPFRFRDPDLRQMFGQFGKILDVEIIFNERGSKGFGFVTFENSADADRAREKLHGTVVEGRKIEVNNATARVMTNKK
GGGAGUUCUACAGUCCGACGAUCAUGUUGACAUUUUGUGGUUAUUUUCAGAUUAAUAGUAAUUGUUAUGCUCUUAAAAGCACUCAUAGAAAGUGUAAGCAUGUGUAAGCAUGUCCUGAAUAGCUUACUAUUCUUGGAAUUCUCGGGUGCCAA: 0.991
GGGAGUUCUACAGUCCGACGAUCUUCUUUUUCUGCAAUGAAGACAGAAAGAAGGCUCUGGGGUGAUGCGUUUGGCAUUUGUGUUGAGCUUAGGGGAGCAUUGGCAUGGAGAAACUCCACGCUGGCGAAGUCCCUGGAAUUCUCGGGUGCCAA: 0.641
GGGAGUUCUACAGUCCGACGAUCUCAGUUCAGUGGAUAUAUGUAUGUAGAGAAAGAGAGGUAAUAUUUUGGGCUCUUAGCUUAGUCUGUUGUUUCAUGCAAACACCGUUGUAACCAAAAGCUUCUGCACUUUGUGGAAUUCUCGGGUGCCAA: 0.552
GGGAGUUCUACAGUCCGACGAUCGUCUAGUGCCCAGCUGCUGACAAUAAAAGCUCCAACUCUUUUAGAGAUCAGUGGAAUUUAGAAGCAUCUUACAGGUAUCAAGGAAUUGAGCUUCUAGAGGGAUGGUUUGGUGGAAUUCUCGGGUGCCAA: 0.589
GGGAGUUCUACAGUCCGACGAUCCCCUUCCCAUCCGUCCUCCCUCAGGAACCAAGAAGUCCAAGAAGGGACGGGGCCGCUCAGGGCGUUAGGAGAAUAGAGGAAGAGAGGGCAGCUGUGAGAACCCGGCUCGUUGGAAUUCUCGGGUGCCAA: 0.291
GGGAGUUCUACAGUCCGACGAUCUCUUUUAAAAAAAUCUGUGAAAUUAACAUGCUUGUGUAUAGCUUUCUAAUAUAUAUAAUAUUAUGGUAAUAGCAGAAGUUUUGUUAUCUUAAUAGCGGGAGGGGGGUAUAUGGAAUUCUCGGGUGCCAA: 0.847
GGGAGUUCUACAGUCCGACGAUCGUUCUGGGACAGUGUCAAAAUGGAAUAACCUGGCAUAAAGCUGAAUUAUCUGAGGAAACUCAAUGGGUAUGAAGAUGAUCAAUUCUGUAAGCCUUGUGGCUGUGCUGUCAUGGAAUUCUCGGGUGCCAA: 0.3
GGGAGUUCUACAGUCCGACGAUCUAGGGGGUGAAGUGAGCCAGCUUGCACCUCAGGCUAACACAUAGGACUUUGCUCAGCCAUGUCCCCUGGGAUACAGGGGCACACCAGGACCAAGUGGCAGACCUGUGGGCUGGAAUUCUCGGGUGCCAA: 0.483
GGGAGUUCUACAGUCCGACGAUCCUGCUAUCUGUCCUUACUUGUGGGCUUCUCCAUGCUGUGCCAAUGGCUGGCUUUUUCUACACCCUCUUUUGAGUGUAGUUUGGUAUUUUGUAAUUGAGAGCUCAUUUCAAUGGAAUUCUCGGGUGCCAA: 0.297
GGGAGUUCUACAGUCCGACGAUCCCUGCUGGGGCUCCUUCCUGGCACUGAGGAGGGGCGCUCCCAAUGCUGUGAGGCAGCGGGGAGGGACCGUGCACCCGUGGCUAUCAGAGCCCCUCCGCUGUCCCACCCUGUGGAAUUCUCGGGUGCCAA: 0.316
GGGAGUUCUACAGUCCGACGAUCUCCAGAAAUGAUCAUCUGGUUAUGGAAUGAAGGGACCUGUUCUCAAGCAAAGGUCAUCACAGUGACCCAACCCAGACACUUCCCCAGCAGCCUCCCCAUACUCUGCUCCUUGGAAUUCUCGGGUGCCAA: 0.2
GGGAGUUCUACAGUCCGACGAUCUUGGUCACAAAUGCUGUUCCCUCUUAGCCUCAUUCUGUGCAACCAAGUGCAUAUAAGAUGCCCUGAAAAGAGUAACAAAGUAUGCUUUGCCUGUUUCCACUUACCAGGAAUGGAAUUCUCGGGUGCCAA: 0.308

Block 3
Target: CEP164, C-terminal peptide (human)
Technique: DHFR complementation, deep sequencing
Sample: yeast
Notes: single substitutions, model-inferred values
Reference: wild type
Direction: higher = weaker binding
Endpoint: binding free energy change
Starting sequence: PDZK1, PDZ domain 2 (human); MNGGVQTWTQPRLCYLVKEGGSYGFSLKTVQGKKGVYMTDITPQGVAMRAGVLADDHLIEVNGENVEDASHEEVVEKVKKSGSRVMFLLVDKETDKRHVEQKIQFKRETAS; partner HNRVKVYRF
G3W: 0.053 kcal/mol
L53M: -0.0947 kcal/mol
H57S: 0.069 kcal/mol
G24A: 1.33 kcal/mol
G20H: 0.189 kcal/mol
S81W: 0.825 kcal/mol
P11M: 0.361 kcal/mol
G24C: 1.18 kcal/mol
K77E: 0.217 kcal/mol
S81M: 1.04 kcal/mol
V90R: -0.297 kcal/mol
F87M: 0.272 kcal/mol
E67Y: 0.201 kcal/mol
Q101M: -0.0734 kcal/mol
K79A: 0.626 kcal/mol
H71T: 0.304 kcal/mol
V17S: 0.128 kcal/mol
P11T: 0.149 kcal/mol
T39Y: 0.388 kcal/mol
D55S: 0.723 kcal/mol
E73A: 0.0434 kcal/mol
D91L: 0.288 kcal/mol
N2E: -0.166 kcal/mol
T7H: 0.0184 kcal/mol
V61P: 0.844 kcal/mol

Block 4
Target: CCNE2, cyclin fold, Cln2 fusion (human)
Technique: yeast growth competition, sequencing
Sample: yeast
Notes: strong parent motif
Reference: not given
Direction: higher = stronger binding
Endpoint: normalised enrichment score
Starting sequence: E2F1 docking peptide (human); PPVKRRLDFETDH; partner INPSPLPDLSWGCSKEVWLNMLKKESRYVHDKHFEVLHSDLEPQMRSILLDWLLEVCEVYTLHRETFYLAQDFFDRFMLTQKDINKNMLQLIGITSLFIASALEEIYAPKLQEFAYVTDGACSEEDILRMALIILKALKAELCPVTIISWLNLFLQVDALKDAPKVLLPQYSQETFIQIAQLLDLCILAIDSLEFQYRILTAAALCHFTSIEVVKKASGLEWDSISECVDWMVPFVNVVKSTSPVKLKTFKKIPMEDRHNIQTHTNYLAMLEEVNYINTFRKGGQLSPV
PPVKRRDDFETDH [L7D]: -0.171
PKVKRRLDFETDH [P2K]: 5.68
PPVKRMLDFETDH [R6M]: 3.14
PPVKRRLDFESDH [T11S]: 5.89
PPVKRRLTFETDH [D8T]: 6.16
PCVKRRLDFETDH [P2C]: 5.72
PPVKRRLDAETDH [F9A]: 0.647
PSVKRRLDFETDH [P2S]: 6.02
PPVKRREDFETDH [L7E]: 0.218
PPVKPRLDFETDH [R5P]: -0.235
PPVKSRLDFETDH [R5S]: -0.205
PPQKRRLDFETDH [V3Q]: 0.877
PEVKRRLDFETDH [P2E]: 4.06
PPVKRRLSFETDH [D8S]: 5.01
PPVKRRLDFGTDH [E10G]: 6.3
PGVKRRLDFETDH [P2G]: 6.07
PPVKRRYDFETDH [L7Y]: 0.275
PPVKRRFDFETDH [L7F]: 0.318
PPVKRRLDVETDH [F9V]: 0.175
PMVKRRLDFETDH [P2M]: 4.72

Repeated from above (block 3):
K77E: 0.217 kcal/mol
T7H: 0.0184 kcal/mol
L53M: -0.0947 kcal/mol
G24A: 1.33 kcal/mol
H71T: 0.304 kcal/mol
N2E: -0.166 kcal/mol
G24C: 1.18 kcal/mol
